Measured values of several laboratories.
Each line is one published result; not all experiments were run side by side.
Penicillin-binding protein 2X: Penicillin-binding protein 2X (Streptococcus pneumoniae R6, UniProt P59676)
sapA: sapA (Haemophilus influenzae, UniProt Q4QL73)
PFF0160c: Dihydroorotate dehydrogenase (quinone), mitochondrial (PFF0160c, Plasmodium falciparum, UniProt Q08210)
CA2: Carbonic anhydrase 2 (CA2, Homo sapiens, UniProt P00918)
TMEM97: Sigma intracellular receptor 2 (TMEM97, Homo sapiens, UniProt Q5BJF2)
Sequence of UniProt Q5BJF2 (whole entry, looked up): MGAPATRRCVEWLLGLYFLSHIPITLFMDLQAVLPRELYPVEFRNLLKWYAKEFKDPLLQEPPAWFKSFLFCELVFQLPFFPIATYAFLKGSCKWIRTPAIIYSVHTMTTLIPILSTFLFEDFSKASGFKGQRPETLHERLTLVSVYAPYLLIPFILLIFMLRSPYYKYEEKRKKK
PFF0160c E182D: Dihydroorotate dehydrogenase (quinone), mitochondrial (PFF0160c, Plasmodium falciparum, UniProt Q08210, E182D)
CA1: Carbonic anhydrase 1 (CA1, Homo sapiens, UniProt P00915)
Sequence of UniProt P00915 (whole entry, looked up): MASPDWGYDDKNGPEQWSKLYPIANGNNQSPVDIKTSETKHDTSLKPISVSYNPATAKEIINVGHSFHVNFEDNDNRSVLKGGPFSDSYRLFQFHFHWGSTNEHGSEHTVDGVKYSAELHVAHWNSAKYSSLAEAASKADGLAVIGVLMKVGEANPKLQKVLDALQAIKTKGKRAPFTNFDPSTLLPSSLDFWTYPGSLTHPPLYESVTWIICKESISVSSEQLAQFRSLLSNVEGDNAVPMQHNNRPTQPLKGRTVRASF
APLNR: Apelin receptor (APLNR, Homo sapiens, UniProt P35414)
Sequence of UniProt P35414 (whole entry, looked up): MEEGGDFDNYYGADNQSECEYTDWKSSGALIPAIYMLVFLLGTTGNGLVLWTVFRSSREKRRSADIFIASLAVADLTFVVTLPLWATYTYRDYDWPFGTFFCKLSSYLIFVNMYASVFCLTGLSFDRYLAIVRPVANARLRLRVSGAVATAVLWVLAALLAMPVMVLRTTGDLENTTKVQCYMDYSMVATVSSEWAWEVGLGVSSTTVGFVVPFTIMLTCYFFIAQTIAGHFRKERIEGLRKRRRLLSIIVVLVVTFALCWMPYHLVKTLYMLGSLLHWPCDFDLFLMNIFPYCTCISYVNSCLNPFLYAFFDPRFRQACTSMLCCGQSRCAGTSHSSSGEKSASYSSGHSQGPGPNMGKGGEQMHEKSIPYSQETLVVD
CA12: Carbonic anhydrase 12 (CA12, Homo sapiens, UniProt O43570)
Sequence of UniProt O43570 (whole entry, looked up): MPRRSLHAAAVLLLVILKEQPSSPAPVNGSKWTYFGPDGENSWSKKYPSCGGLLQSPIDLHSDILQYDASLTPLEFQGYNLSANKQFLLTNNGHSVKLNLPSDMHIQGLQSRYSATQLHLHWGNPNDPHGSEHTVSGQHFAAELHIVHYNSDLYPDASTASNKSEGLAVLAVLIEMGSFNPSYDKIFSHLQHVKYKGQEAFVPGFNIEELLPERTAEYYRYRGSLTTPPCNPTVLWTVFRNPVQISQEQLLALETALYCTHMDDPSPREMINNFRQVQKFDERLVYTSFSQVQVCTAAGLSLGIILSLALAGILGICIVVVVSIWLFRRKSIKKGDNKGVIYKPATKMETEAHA
Sequence of UniProt P09958 (whole entry, looked up): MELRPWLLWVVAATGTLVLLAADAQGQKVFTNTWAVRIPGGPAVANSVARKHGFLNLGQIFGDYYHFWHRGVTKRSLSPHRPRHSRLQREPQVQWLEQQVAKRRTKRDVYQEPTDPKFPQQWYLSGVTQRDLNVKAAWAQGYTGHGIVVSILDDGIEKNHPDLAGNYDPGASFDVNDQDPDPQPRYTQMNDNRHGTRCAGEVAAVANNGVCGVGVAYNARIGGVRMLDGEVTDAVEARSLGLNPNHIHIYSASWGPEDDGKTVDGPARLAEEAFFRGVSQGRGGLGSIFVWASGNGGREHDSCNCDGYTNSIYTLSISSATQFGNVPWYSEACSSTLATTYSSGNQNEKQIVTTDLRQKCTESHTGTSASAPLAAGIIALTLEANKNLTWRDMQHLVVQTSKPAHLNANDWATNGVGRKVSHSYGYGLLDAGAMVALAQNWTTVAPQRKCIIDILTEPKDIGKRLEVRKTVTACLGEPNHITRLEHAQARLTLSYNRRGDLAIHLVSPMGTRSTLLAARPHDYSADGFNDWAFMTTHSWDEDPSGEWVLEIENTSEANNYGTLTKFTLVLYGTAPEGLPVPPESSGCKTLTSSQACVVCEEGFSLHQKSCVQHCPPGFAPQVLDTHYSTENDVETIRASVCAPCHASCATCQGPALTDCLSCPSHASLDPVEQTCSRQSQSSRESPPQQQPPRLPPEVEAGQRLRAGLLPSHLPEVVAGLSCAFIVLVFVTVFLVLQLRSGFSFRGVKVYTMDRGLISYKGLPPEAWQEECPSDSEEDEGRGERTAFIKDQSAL
Sequence of UniProt Q04609 (whole entry, looked up): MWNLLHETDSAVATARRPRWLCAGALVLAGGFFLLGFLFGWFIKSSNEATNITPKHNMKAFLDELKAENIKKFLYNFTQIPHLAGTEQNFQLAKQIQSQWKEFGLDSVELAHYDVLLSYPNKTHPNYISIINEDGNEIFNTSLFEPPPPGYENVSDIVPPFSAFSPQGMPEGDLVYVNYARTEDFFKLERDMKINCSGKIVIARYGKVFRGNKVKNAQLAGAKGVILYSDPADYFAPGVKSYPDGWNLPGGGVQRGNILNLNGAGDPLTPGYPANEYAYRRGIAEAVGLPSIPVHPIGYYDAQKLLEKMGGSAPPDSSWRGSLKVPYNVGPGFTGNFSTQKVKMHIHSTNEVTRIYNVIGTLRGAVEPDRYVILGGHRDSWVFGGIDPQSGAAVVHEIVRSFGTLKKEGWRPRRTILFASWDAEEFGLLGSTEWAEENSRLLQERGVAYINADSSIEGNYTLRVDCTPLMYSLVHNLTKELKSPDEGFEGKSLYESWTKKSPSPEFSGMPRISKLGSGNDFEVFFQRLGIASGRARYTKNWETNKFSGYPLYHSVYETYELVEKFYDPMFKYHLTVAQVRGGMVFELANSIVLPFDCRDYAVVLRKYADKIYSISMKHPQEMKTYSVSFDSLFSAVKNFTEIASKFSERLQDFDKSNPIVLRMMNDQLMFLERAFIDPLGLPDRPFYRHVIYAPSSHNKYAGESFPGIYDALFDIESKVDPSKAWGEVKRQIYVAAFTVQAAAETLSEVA
Sequence of UniProt Q96NY8 (whole entry, looked up): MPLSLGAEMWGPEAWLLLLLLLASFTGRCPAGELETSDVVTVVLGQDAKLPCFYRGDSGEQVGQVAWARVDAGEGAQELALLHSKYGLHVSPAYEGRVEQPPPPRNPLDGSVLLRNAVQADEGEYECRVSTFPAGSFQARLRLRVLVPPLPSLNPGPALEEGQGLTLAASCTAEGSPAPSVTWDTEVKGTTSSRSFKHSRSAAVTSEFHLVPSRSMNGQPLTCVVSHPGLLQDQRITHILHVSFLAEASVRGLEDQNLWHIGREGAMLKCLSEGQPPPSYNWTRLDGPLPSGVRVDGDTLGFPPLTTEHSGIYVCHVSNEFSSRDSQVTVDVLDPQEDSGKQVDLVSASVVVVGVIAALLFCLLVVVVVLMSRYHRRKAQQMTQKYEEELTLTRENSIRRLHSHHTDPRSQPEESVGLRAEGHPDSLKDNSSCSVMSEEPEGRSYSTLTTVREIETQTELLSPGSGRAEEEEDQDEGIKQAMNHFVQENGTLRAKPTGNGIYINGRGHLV
Sequence of UniProt Q9GZQ4 (whole entry, looked up): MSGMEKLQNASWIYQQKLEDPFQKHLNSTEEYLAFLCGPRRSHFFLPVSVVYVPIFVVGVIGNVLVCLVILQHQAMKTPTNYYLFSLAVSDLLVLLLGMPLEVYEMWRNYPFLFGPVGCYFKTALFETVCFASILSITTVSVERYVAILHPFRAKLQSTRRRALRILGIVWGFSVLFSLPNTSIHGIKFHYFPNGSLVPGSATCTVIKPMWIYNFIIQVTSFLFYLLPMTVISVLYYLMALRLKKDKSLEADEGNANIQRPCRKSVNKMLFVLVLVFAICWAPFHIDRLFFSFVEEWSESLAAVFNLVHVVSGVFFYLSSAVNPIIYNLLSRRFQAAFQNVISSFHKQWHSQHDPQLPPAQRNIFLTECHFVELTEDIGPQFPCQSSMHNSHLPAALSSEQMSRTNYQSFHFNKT
Sequence of UniProt P25440 (whole entry, looked up): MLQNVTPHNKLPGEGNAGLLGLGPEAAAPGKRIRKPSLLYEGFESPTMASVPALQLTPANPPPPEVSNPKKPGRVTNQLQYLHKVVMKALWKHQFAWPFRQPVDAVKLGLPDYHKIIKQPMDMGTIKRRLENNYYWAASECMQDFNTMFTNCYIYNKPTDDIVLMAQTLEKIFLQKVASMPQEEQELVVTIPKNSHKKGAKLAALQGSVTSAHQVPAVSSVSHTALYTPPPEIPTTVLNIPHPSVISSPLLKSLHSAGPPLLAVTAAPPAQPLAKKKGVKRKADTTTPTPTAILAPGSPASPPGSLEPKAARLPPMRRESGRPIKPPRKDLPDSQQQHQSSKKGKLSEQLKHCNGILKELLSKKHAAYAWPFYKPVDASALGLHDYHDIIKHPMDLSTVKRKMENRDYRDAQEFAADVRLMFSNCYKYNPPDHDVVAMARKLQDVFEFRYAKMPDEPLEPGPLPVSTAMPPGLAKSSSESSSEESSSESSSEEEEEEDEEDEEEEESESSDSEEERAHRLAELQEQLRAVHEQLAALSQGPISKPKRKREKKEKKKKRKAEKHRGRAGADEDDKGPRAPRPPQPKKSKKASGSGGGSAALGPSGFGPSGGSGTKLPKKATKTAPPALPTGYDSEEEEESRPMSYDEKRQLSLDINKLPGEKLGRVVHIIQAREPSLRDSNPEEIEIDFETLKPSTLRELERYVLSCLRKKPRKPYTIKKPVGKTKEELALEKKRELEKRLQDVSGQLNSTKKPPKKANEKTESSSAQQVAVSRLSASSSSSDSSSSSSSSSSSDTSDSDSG
Sequence of UniProt P20248 (whole entry, looked up): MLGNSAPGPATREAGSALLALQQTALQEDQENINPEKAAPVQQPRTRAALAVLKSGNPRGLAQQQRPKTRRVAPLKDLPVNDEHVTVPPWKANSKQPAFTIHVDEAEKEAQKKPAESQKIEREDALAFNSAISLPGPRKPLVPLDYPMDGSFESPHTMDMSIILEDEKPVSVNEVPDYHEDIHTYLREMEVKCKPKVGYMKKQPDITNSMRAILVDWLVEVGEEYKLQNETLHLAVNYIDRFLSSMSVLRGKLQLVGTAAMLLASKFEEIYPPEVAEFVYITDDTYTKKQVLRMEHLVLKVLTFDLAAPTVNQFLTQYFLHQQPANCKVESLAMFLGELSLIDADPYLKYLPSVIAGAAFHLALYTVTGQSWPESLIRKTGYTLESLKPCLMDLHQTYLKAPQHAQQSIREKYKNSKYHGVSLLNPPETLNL

The Kd of `CC(C)(CN)CNCc1nc2ccccc2n1CCOc1ccccc1` is reported as 790 µM (Penicillin-binding protein 2X; binding, MST).
`NC(=O)CC[C@H](NC(=O)[C@H](CCC(=O)O)NC(=O)[C@H](CCC(=O)O)NC(=O)[C@H](CO)NC(=O)[C@@H]1CCCN1)C(=O)O` gave a Kd of 0.339 µM (sapA; binding).
The IC50 of `Cc1nc(-c2nc(NCc3ccncc3)ncc2-c2ccsc2)sc1C` is reported as over 10 µM (PFF0160c; enzyme activity, inhibitor, absorbance).
`O=C(Nc1cccc(C(F)(F)F)c1)Nc1ccc2c(c1)C=CCP(=O)(O)O2` has a Ki of over 10 µM (CA2; enzyme activity, inhibitor, stopped-flow).
With `Cc1cn([C@H]2C[C@H](O)[C@@H](COP(=O)(O)OP(=O)(O)OP(=O)(O)O)O2)c(=O)[nH]c1=O` the Kd was over 4 µM (dgt (Salmonella enterica, UniProt A0A5H6DAK1, H126A/E129A); binding, ITC).
`CC[C@H](C)[C@H](NC(=O)[C@H](CCC(N)=O)NC(=O)[C@H](CCC(=O)O)NC(=O)[C@H](CCC(=O)O)NC(=O)[C@H](CCCCN)NC(=O)[C@@H]1CCCN1)C(=O)NCC(=O)N[C@@H](CCCCN)C(=O)O` has a Kd of 0.0036 µM (sapA; binding).
The Kd of `CCCC[C@@H]1NC(=O)[C@H](Cc2ccc(O)cc2)NC(=O)[C@@H]2CCCN2C(=O)[C@H](CC(=O)O)NC(=O)[C@H](C)NC(=O)[C@H](Cc2ccccc2)NC(=O)[C@@H]2CSCCC(=O)N3CN(CN(C3)C(=O)CCSC[C@@H](C(=O)N[C@@H](C)C(N)=O)NC1=O)C(=O)CCSC[C@H](NC(C)=O)C(=O)N[C@@H](CC(C)(C)C)C(=O)N1CCC[C@H]1C(=O)N[C@@H](CCC(=O)O)C(=O)N[C@H](CCCCNC(=O)CCc1cn(CCOCCOCCOCCOCCOCCC(=O)NCCCC[C@H]3NC(=O)[C@H](Cc4cccc5ccccc45)NC(=O)[C@@H]4CCCN4C(=O)[C@@H](NC(C)=O)CSCCC(=O)N4CN5CN(C4)C(=O)CCSC[C@H](NC3=O)C(=O)N[C@@H](CCSC)C(=O)N[C@@H](CCCCNC(=N)N)C(=O)N[C@@H](Cc3c[nH]cn3)C(=O)N[C@@H](Cc3c[nH]c4ccccc34)C(=O)N[C@@H](CO)C(=O)N[C@@H]([C@@H](C)O)C(=O)N3CCC[C@H]3C(=O)N3C[C@H](O)C[C@H]3C(=O)N[C@@H](Cc3c[nH]c4ccccc34)C(=O)N[C@H](C(N)=O)CSCCC5=O)nn1)C(=O)N1CCC[C@H]1C(=O)N[C@@H](Cc1ccc(O)cc1)C(=O)N2` is reported as 0.0007 µM (Nectin-4 (Homo sapiens, UniProt Q96NY8); binding, SPR).
For `CC(C)C[C@H](NC(=O)[C@@H](NC(=O)[C@H](C)N)C(C)C)C(=O)N[C@@H](CO)C(=O)NCC(=O)N[C@@H](CC(C)C)C(=O)N1CCC[C@H]1C(=O)N[C@@H](CCCCN)C(=O)N[C@@H](CCC(=O)O)C(=O)N[C@@H](CCC(=O)O)C(=O)N[C@@H](CCC(N)=O)C(=O)O`, the Kd was 0.0061 µM (sapA; binding).
The EC50 of `CC(C)C[C@H](NC(=O)[C@H](Cc1ccccc1)NC(=O)[C@H](Cc1ccc(O)cc1)NC(=O)CNC(=O)[C@H](CCCCN)NC(=O)[C@H](CO)NC(=O)[C@H](CCC(N)=O)NC(=O)CNC(=O)[C@@H](NC(=O)[C@H](CO)NC(=O)[C@@H]1CCCN1C(=O)[C@H](CO)NC(=O)[C@H](CCC(N)=O)NC(=O)[C@H](Cc1ccc(O)cc1)NC(=O)[C@H](CCC(=O)O)NC(=O)[C@H](C)NC(=O)[C@H](CCCCN)NC(=O)[C@@H](N)Cc1ccccc1)C(C)C)C(=O)N[C@@H](Cc1ccccc1)C(=O)N[C@@H](CCCNC(=N)N)C(=O)N1CCC[C@H]1C(=O)N[C@@H](CCCNC(=N)N)C(=O)N[C@@H](CC(N)=O)C(N)=O` is reported as 0.00107 µM (NMUR2 (Homo sapiens, UniProt Q9GZQ4); β-arrestin recruitment, agonist).
For `COc1ccc(CCN2CCC(Nc3nc4ccccc4n3Cc3ccc(F)cc3)CC2)cc1`, the Ki was 0.0842 µM (TMEM97; ligand displacement, radioligand).
`c1ccc2[nH]c(CNCC34CC5CC(CC(C5)C3)C4)nc2c1` gave a Kd of 925 µM (Penicillin-binding protein 2X; binding, MST).
`Cc1[nH]c2ccc(-c3ccccc3)cc2c(=O)c1Br` has an IC50 of over 10 µM (PFF0160c E182D; enzyme activity, inhibitor, absorbance).
`Cc1ccc(NC(=O)Nc2ccc3c(c2)C=CCP(=O)(O)O3)cc1` has a Ki of over 10 µM (CA1; enzyme activity, inhibitor, stopped-flow).
The Ki of `O=C(CN1CCC(CN2Cc3ccccc3C2=O)CC1)c1ccc(F)cc1` is reported as 0.0884 µM (TMEM97; ligand displacement, radioligand).
`CCc1nc2nc(C)cc(Nc3cc(C)cc(C)c3)n2n1` has an IC50 of 0.318 µM (PFF0160c; enzyme activity, inhibitor, absorbance).
`O=C(Nc1ccc2c(c1)C=CCP(=O)(O)O2)c1ccccc1I` gave a Ki of over 10 µM (CA2; enzyme activity, inhibitor, stopped-flow).
With `Oc1ccc(-c2cc(COc3ccccc3C(F)(F)F)c(C3=CCNCC3)cc2COc2ccccc2C(F)(F)F)cc1` the IC50 was 2.66 µM (PFF0160c E182D; enzyme activity, inhibitor, absorbance).
With `COCCC(=O)N[C@@H](CCC(N)=O)C(=O)N[C@@H](Cc1ccccc1)C(=O)N[C@@H](CCCNC(=N)N)C(=O)c1nc2ccccc2s1` the Ki was over 10 µM (Furin (FURIN, Homo sapiens, UniProt P09958); cell-free assay).
The IC50 of `c1csc(-c2nnc3sc(Cc4ccc5c(c4)CCCC5)nn23)c1` is reported as 0.749 µM (PFF0160c E182D; enzyme activity, inhibitor, absorbance).
`CC[C@H](C)[C@H](NC(=O)[C@H](CCCNC(=N)N)NC(=O)[C@H](CCCNC(=N)N)NC(=O)[C@H](CCC(=O)O)NC(=O)[C@H](CCC(=O)O)NC(=O)[C@@H](N)[C@@H](C)O)C(=O)N[C@@H](CCSC)C(=O)N[C@@H](CCCNC(=N)N)C(=O)N[C@@H](C)C(=O)N[C@@H](CCCNC(=N)N)C(=O)N[C@H](C(=O)N[C@@H](CCC(N)=O)C(=O)NCC(=O)N[C@@H](CC(C)C)C(=O)N[C@@H](CC(C)C)C(=O)N[C@@H](Cc1c[nH]c2ccccc12)C(=O)O)[C@@H](C)O` gave an EC50 of 0.416 µM (APLNR; calcium signal, agonist, fluorescence).
`N=C(N)NCCC[C@H](NC(=O)[C@@H](N)CCCNC(=N)N)C(=O)N[C@@H](Cc1ccc(O)cc1)C(=O)N[C@@H](CCCCN)C(=O)N[C@@H](CCC(N)=O)C(=O)O` gave a Kd of 0.005 µM (sapA; binding).
The Ki of `O=C(Nc1ccc(Br)cc1)Nc1ccc2c(c1)C=CCP(=O)(O)O2` is reported as over 10 µM (CA1; enzyme activity, inhibitor, stopped-flow).
With `CN(CCc1ccc(Cl)c(Cl)c1)CCN1CCCC1` the Ki was 0.016 µM (TMEM97; ligand displacement, radioligand).
For `FC(F)(F)Oc1ccc(OCCn2c(CNCC34CC5CC(CC(C5)C3)C4)nc3ccccc32)cc1`, the Kd was 90 µM (Penicillin-binding protein 2X; binding, MST).
`CC(=O)Nc1sc(C)c(C)c1CN1CCc2ccccc2C1` has an IC50 of 0.387 µM (PFF0160c; enzyme activity, inhibitor, absorbance).
With `COC(=O)C[C@@H]1N=C(c2cc3ccccc3c3ccccc23)c2cc(OC)ccc2-n2c(C)nnc21` the Kd was 9.46 µM (Bromodomain-containing protein 2, BD2 (BRD2, Homo sapiens, UniProt P25440); binding, SPR).
`CC(C)[C@H](NC(=O)[C@@H]1CCCN1C(=O)[C@@H](N)Cc1c[nH]cn1)C(=O)N[C@@H](Cc1ccccc1)C(=O)NCC(=O)N1CCC[C@H]1C(=O)N[C@@H](CCCNC(=N)N)C(=O)N[C@@H](CCCNC(=N)N)C(=O)N[C@@H](Cc1ccc(O)cc1)C(=O)N[C@@H](CCCCN)C(=O)N[C@@H](CCC(N)=O)C(=O)O` gave a Kd of 0.0059 µM (sapA; binding).
With `Cc1c(-c2ccccc2)oc2c(C(=O)OCCN3CCCCC3)cccc2c1=O` the Ki was over 10 µM (TMEM97; ligand displacement, radioligand).
`CC1(C)CN(CCCCC(=O)N[C@H](Cc2ccc(O)c(I)c2)C(=O)N[C@H](Cc2ccccc2)C(=O)N[C@H](CCCCNC(=O)CCCCCCC(=O)NCCCC[C@H](NC(=O)N[C@@H](CCC(=O)O)C(=O)O)C(=O)O)C(=O)O)CC[N]2CC(C)(C)[S][Tc]2(=[O])[S]1` (some centres unmarked) has a Kd of 0.0084 µM (FOLH1 (Homo sapiens, UniProt Q04609); binding, radioligand).
With `CC[C@H](C)[C@H](NC(=O)[C@H](CCSC)NC(=O)[C@H](CC(N)=O)NC(=O)[C@@H](NC(=O)[C@H](Cc1ccc(O)cc1)NC(=O)[C@H](Cc1ccc(O)cc1)NC(=O)[C@H](CCCNC(=N)N)NC(=O)[C@H](CC(C)C)NC(=O)[C@H](CCC(=O)O)NC(=O)[C@H](CCCNC(=N)N)NC(=O)[C@H](CCC(=O)O)NC(=O)[C@H](Cc1c[nH]c2ccccc12)NC(=O)[C@H](CCC(=O)O)NC(=O)[C@H](CCCNC(=N)N)NC(=O)[C@H](CCC(=O)O)NC(=O)[C@@H](NC(=O)[C@H](CC(C)C)NC(=O)[C@H](Cc1c[nH]cn1)NC(=O)[C@H](CO)NC(=O)[C@@H]1CCCN1C(=O)[C@@H]1CCCN1)[C@@H](C)O)[C@@H](C)O)C(=O)N[C@@H](CCCNC(=N)N)C(=O)N[C@@H](CC(C)C)C(=O)N[C@@H](CC(C)C)C(=O)N[C@@H](CCSC)C(=O)O` the EC50 was 2.9 µM (APLNR; calcium signal, agonist, fluorescence).
`O=C(Nc1ccc(I)cc1)Nc1ccc2c(c1)C=CCP(=O)(O)O2` has a Ki of over 10 µM (CA12; enzyme activity, inhibitor, stopped-flow).
`O=C(Nc1cccc(Cl)c1Cl)Nc1ccnc2ccccc12` gave an IC50 of over 10 µM (PFF0160c E182D; enzyme activity, inhibitor, absorbance).
For `COc1cccc(NC(=O)Nc2ccc3c(c2)C=CCP(=O)(O)O3)c1`, the Ki was over 10 µM (CA1; enzyme activity, inhibitor, stopped-flow).
`CC(C)C[C@H](NC(=O)[C@H](CCCNC(=N)N)NC(=O)[C@H](CC(=O)O)NC(=O)[C@@H](N)CCC(=O)O)C(=O)N[C@@H](C)C(=O)N[C@H](C(=O)N[C@@H](CS)C(=O)N[C@@H](CCCNC(=N)N)C(=O)N[C@@H](CC(C)C)C(=O)N[C@@H](CCC(N)=O)C(=O)N1CCC[C@H]1C(=O)N[C@@H](CC(C)C)C(=O)N[C@@H](Cc1ccccc1)C(=O)N1CCC[C@H]1C(=O)O)C(C)C` gave an EC50 of 0.524 µM (APLNR; calcium signal, agonist, fluorescence).
With `O=C(Nc1ccc2c(c1)C=CCP(=O)(O)O2)c1ccc(Cl)cc1` the Ki was over 10 µM (CA1; enzyme activity, inhibitor, stopped-flow).
For `CC(C)C[C@H](NC(=O)[C@H](CCCNC(=N)N)NC(=O)[C@H](CCCNC(=N)N)NC(=O)[C@H](CCCCN)NC(=O)[C@@H](NC(=O)[C@@H]1CCCN1C(=O)[C@@H]1CCCN1C(=O)[C@H](CCCNC(=N)N)NC(=O)CNC(=O)c1ccc(-c2c3ccc(=[N+](C)C)cc-3oc3cc(N(C)C)ccc23)c(C(=O)[O-])c1)C(C)C)C(=O)N[C@@H](CC(=O)O)C(=O)N[C@@H](CC(C)C)C(=O)N[C@@H](CCC(=O)O)C(=O)N[C@H](C(=O)N[C@@H](CC(=O)O)C(=O)N[C@@H](Cc1c[nH]cn1)C(=O)N[C@@H](CCC(N)=O)C(=O)O)[C@@H](C)O`, the Kd was 0.51 µM (Cyclin-A2 (CCNA2, Homo sapiens, UniProt P20248); binding, FP).
For `CCOc1cccc(=O)c2c(C)n(Cc3ccc(Cl)cc3)c(C)c12`, the IC50 was 1.56 µM (PFF0160c E182D; enzyme activity, inhibitor, absorbance).
`O=C(Nc1ccc2c(c1)C=CCP(=O)(O)O2)c1ccc([N+](=O)[O-])cc1` gave a Ki of 0.0067 µM (CA12; enzyme activity, inhibitor, stopped-flow).

A few entries again:
`CCc1nc2nc(C)cc(Nc3cc(C)cc(C)c3)n2n1` has an IC50 of 0.318 µM (PFF0160c; enzyme activity, inhibitor, absorbance).
For `CCOc1cccc(=O)c2c(C)n(Cc3ccc(Cl)cc3)c(C)c12`, the IC50 was 1.56 µM (PFF0160c E182D; enzyme activity, inhibitor, absorbance).
For `CC(C)C[C@H](NC(=O)[C@@H](NC(=O)[C@H](C)N)C(C)C)C(=O)N[C@@H](CO)C(=O)NCC(=O)N[C@@H](CC(C)C)C(=O)N1CCC[C@H]1C(=O)N[C@@H](CCCCN)C(=O)N[C@@H](CCC(=O)O)C(=O)N[C@@H](CCC(=O)O)C(=O)N[C@@H](CCC(N)=O)C(=O)O`, the Kd was 0.0061 µM (sapA; binding).
`Cc1[nH]c2ccc(-c3ccccc3)cc2c(=O)c1Br` has an IC50 of over 10 µM (PFF0160c E182D; enzyme activity, inhibitor, absorbance).
